Assay results collected from several papers.
Compare with care: the assays were run in different laboratories. Values joined by “and” are separate records of one study, mostly repeats; a detail may differ.
Target: SRSF protein kinase 1 (SRPK1, Homo sapiens, UniProt Q96SB4)

Compound | test | setting | how to read | endpoint | result
COc1cc(Nc2nccc(-c3cnn4nc(OC)ccc34)n2)cc(C(F)(F)F)c1 | binding, competition with immobilised ligand | 1 µM |  | remaining binding | 79%
NC(=O)[C@@H](O)C[C@H]1CCc2sc3ncnc(O[C@H]4CC[C@H](N5CCOCC5)CC4)c3c21 | enzyme activity, inhibitor | 10 µM |  | inhibition | 4%
Cc1ccc(C)c(-c2ccc3nc(NC(=O)C4CCCCC4)nn3c2)c1 | enzyme activity, Dundee kinase panel | 10 µM |  | remaining activity | 65%
COc1c(Cl)cccc1Nc1c(-c2ccncc2C#C[C@@]2(C)CCCN2C(=O)/C=C/CN(C)C)[nH]c2c1C(=O)NCC2 | binding, competition with immobilised ligand | 3 µM |  | remaining binding | 87%
Cc1nc2c(F)cc(-c3nc(Nc4ccc(CNC(=O)CCCCCCC(=O)NO)cc4)ncc3F)cc2n1C(C)C | enzyme activity, inhibitor | 1 µM |  | inhibition | 45%
Cc1cnc2nc1Nc1cccc(c1)COC/C=C/COCc1cc(ccc1OCCN1CCOCC1)N2 | binding, competition with immobilised ligand | 0.1 µM |  | remaining binding | 91%
CN1CC[C@@H](COc2cnc(C#N)cc2-c2ccn3nc(NC(=O)C4CC4)cc3c2)C1 | enzyme activity, inhibitor | 1 µM |  | inhibition | 21%
O=C(Nc1ccccc1)Nc1ccccc1O | enzyme activity, inhibitor, FRET | 10 µM |  | inhibition | 13.4%
CNC(=O)C[C@H](Cc1ccc(C#N)cc1)NC(=O)c1cc(-c2ccc(CN[C@H](C)c3ccc(C)cc3)o2)ccc1Cl | enzyme activity, inhibitor | 1 µM |  | activity vs control | 105%
COc1c(OCCCN2CCOCC2)ccc2c1N=C(NC(=O)c1cnc(N)nc1)N1CCN=C21 | kinase activity, inhibitor | 1 µM | baseline: untreated control | remaining activity | 95%
CCN1CCN(Cc2ccc(C(=O)Nc3ccc(C)c(NCc4cnc5[nH]ccc5c4OC)c3)cc2C(F)(F)F)CC1 | binding, competition with immobilised ligand | 1 µM |  | remaining binding | 93%
N#Cc1ccc(NC(=O)Nc2ccccc2)cc1 | enzyme activity, inhibitor, FRET | 10 µM |  | inhibition | 23.1%
CN1CCN(Cc2ccc(-c3ccc(CO[C@H]4CCC[C@@H]4NC(=O)c4cc(-c5cnn(C)c5)cnc4N)cc3)cc2)CC1 | enzyme activity, inhibitor | 0.1 µM |  | inhibition | 1%
COc1cccc(NC(=O)Nc2ccccc2O)c1 | enzyme activity, inhibitor, FRET | 10 µM |  | inhibition | 11.6%
C=CC(=O)N1Cc2nc(-c3cc(-c4cc(Cl)cnc4Cl)c(F)cc3F)n(-c3ccncn3)c2C1 | cell-free assay, inhibitor | 1 µM |  | inhibition | 8.3%
Nc1ncc(-c2cc(-c3cnn(CC(F)(F)F)c3)ncc2F)nc1C(=O)NC1CNCC(F)C1 (centres unmarked) | enzyme activity | 1 µM | baseline: DMSO control | remaining activity | 97%
CN(C(=O)N(C)c1ccc(C#N)cc1)c1ccccc1 | kinase activity, inhibitor, Z'-LYTE | 10 µM, added: ATP at apparent Km |  | inhibition | no inhibition
CCn1cc(C(=O)O)c(=O)c2c(N)c(F)c(NC3CCCCC3)cc21 | kinase activity | 0.1 µM, added: ATP at Km |  | inhibition | 3.9%
Cc1cccc(O[C@H]2CCC[C@@H](C(C)CNCc3ccncc3)C2)c1 (relative stereo) | enzyme activity, inhibitor | 1 µM |  | inhibition | 3%
Cc1cccc(-c2ccc3nc(NC(=O)C4CCOCC4)nn3c2)c1 | enzyme activity, Dundee kinase panel | 10 µM |  | remaining activity | 53%
C=CC(=O)Nc1cccc(-c2cnc3[nH]cc(C(=O)NC(C)(C)C)c3n2)c1 | kinase activity | 0.1 µM |  | inhibition | -8% and -3%
O=C(O)CCC(=O)c1cccc(NS(=O)(=O)c2c[nH]c3ncccc23)c1 | kinase activity, radiometric | 10 µM |  | remaining activity | 105%
O=C=[N][Ru-4]123([n]4c5ccc(O)cc5c5c6c(c7cc(F)c[n+]1c7c54)C(=O)NC6=O)[S+]1CC[S+]2CC[S+]3CC1 (centres unmarked) | enzyme activity | 100 nM, human enzyme, added: 10 µM ATP | baseline: untreated | remaining activity | 35%

Excerpt of the above:
Compound | test | setting | how to read | endpoint | result
COc1c(OCCCN2CCOCC2)ccc2c1N=C(NC(=O)c1cnc(N)nc1)N1CCN=C21 | kinase activity, inhibitor | 1 µM | baseline: untreated control | remaining activity | 95%
Nc1ncc(-c2cc(-c3cnn(CC(F)(F)F)c3)ncc2F)nc1C(=O)NC1CNCC(F)C1 (centres unmarked) | enzyme activity | 1 µM | baseline: DMSO control | remaining activity | 97%
O=C(O)CCC(=O)c1cccc(NS(=O)(=O)c2c[nH]c3ncccc23)c1 | kinase activity, radiometric | 10 µM |  | remaining activity | 105%
N#Cc1ccc(NC(=O)Nc2ccccc2)cc1 | enzyme activity, inhibitor, FRET | 10 µM |  | inhibition | 23.1%
